Results pooled from the literature.
Each line is one published result; not all experiments were run side by side. Several values in a cell are separate wells, animals, samples, runs or records. Numbers after ± are the reported error.
PPO3: PPO3 (Agaricus bisporus, UniProt C7FF04)
USP14: Ubiquitin carboxyl-terminal hydrolase 14 (USP14, Homo sapiens, UniProt P54578)
Gria2/Glutamate receptor 3: Gria2/Glutamate receptor 3 (Rattus norvegicus, UniProt P19491+P19492)
T1: DNA hairpin, hairpin; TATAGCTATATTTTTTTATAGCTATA

C#CCCCC(=O)NCC1CN(CCCCCNC(=O)CN(CCN)C(=O)Cn2cnc3c(=O)[nH]c(N)nc32)CCN(CCCCCNC(=O)CN(CCN)C(=O)Cn2cnc3c(=O)[nH]c(N)nc32)CCN(CCCCCNC(=O)CN(CCN)C(=O)Cn2cnc3c(=O)[nH]c(N)nc32)CCN1CCCCCNC(=O)CN(CCN)C(=O)Cn1cnc2c(=O)[nH]c(N)nc21 (stereo not drawn) — change in melting temperature (T1, DNA hairpin, hairpin; FRET melting): 0 °C
CCCCCCCCO[C@@H]1O[C@H](CO)[C@H](O)[C@H](O)[C@H]1O[C@@H]1O[C@@H](C)[C@@H](O)[C@@H](O)[C@@H]1O — koff (ABO (Homo sapiens, UniProt P16442, G235S/G268A/L266M/R176G/W181E); methyl-TROSY NMR titration lineshape analysis; apo mutant enzyme): 1290 ± 30 s⁻¹
N#Cc1ccc(-c2cc(CN3c4ccccc4C=Cc4ccccc43)on2)cc1 — apparent Vmax (PPO3; enzyme activity, inhibitor; concentration not given): 31.2 µmol/min
COc1cc(Nc2nc(C)cc(-c3cnn4nc(OC)ccc34)n2)cc(C(F)(F)F)c1 — remaining activity (PIK3CA (Homo sapiens, UniProt P42336, E545K); inhibitor; 1 µM; reference: control): 71%
CCCC[C@H](NC(=O)[C@H](CCC(N)=O)NC(=O)[C@H](CCC(=O)O)NC(=O)[C@@H]1CCCN1C(=O)[C@@H](NC(=O)[C@H](C)NC(=O)[C@H](CC(N)=O)NC(=O)[C@H](CC(=O)O)NC(=O)CNC(=O)[C@@H]1CCCN1C(=O)[C@H](Cc1ccc(O)cc1)NC(=O)[C@@H](NC(=O)[C@@H]1CCCN1C(=O)[C@H](CCC(=O)O)NC(=O)[C@H](CC(C)C)NC(=O)[C@@H]1CCCN1C(=O)[C@H](C)N)C(C)C)[C@@H](C)O)C(=O)N[C@@H](C)C(=O)N[C@@H](CCC(N)=O)C(=O)N[C@@H](Cc1ccc(O)cc1)C(=O)N[C@@H](C)C(=O)N[C@@H](CCCCNC(=O)c1ccc2c(c1)C(=O)OC21c2ccc(N(C)C)cc2Oc2cc(N(C)C)ccc21)C(=O)N[C@@H](CC(=O)O)C(=O)N[C@@H](CC(C)C)C(=O)N[C@@H](CCCNC(=N)N)C(=O)N[C@@H](CCCNC(=N)N)C(=O)N[C@@H](Cc1ccc(O)cc1)C(=O)N[C@H](C(=O)N[C@@H](CC(N)=O)C(=O)N[C@@H](CCCC)C(=O)N[C@@H](CC(C)C)C(=O)N[C@H](C(=O)N[C@@H](CCCNC(=N)N)C(=O)N1CCC[C@H]1C(=O)N[C@@H](CCCNC(=N)N)C(=O)N[C@@H](Cc1ccc(O)cc1)C(N)=O)[C@@H](C)O)[C@@H](C)CC — BRETmax (NPY4R (Homo sapiens, UniProt P50391, F304A); NanoBRET binding; Nluc-tagged receptor F304A, unit not given; net BRET ratio): 0.048 ± 0.0015
CC(C)Oc1cc(Cl)ccc1CNc1cc(-c2ccccc2)nc2ncnn12 — cAMP luminescence (GPR3 (Homo sapiens, UniProt P46089, I200W); cAMP GloSensor; human cells; 10 pM; higher is more cAMP): 39800 a.u. and 36800 a.u. and 55500 a.u. and 38200 a.u.
O=C(N[C@@H](Cc1coc2ccccc12)B(O)O)[C@@H]1C[C@H]2CC[C@@H]1O2 — reversibility (Proteasome component C5/PSMB8 (Homo sapiens, UniProt P20618+P28062); inhibitor, jump dilution; 1 h): 68 ± 11.5%
CNC(=O)C1CCN(c2cc(C)c(F)cc2NC(=O)c2ccc(-c3cc(O)ccc3C)c(C)c2)CC1 — remaining binding (Tyrosine-protein kinase ABL1, non-phosphorylated (ABL1, Homo sapiens, UniProt P00519, F317I); binding, competition with immobilised ligand; 1 µM): 85%
CCCCCC=CC=C1C(=O)C=CC1CC=CCCCC(=O)O (stereo not drawn) — isoTOP-ABPP competition ratio (Ketosamine-3-kinase (FN3KRP, Homo sapiens, UniProt Q9HA64); competitive isoTOP-ABPP; Ramos soluble proteome; 100 µM, added: iodoacetamide probe; reference: DMSO over compound-treated, higher = stronger cysteine blockade): 2.1
CC(/C=C/C(=O)NO)=C\[C@@H](C)C(=O)c1ccc(N(C)C)cc1 — binding stoichiometry (HDAC8 (Homo sapiens, UniProt Q9BY41); ITC; Tris-HCl buffer; concentration not given, 283 K): 0.9
Nc1ncc2c(n1)-c1c([nH]c3ccc(C4=CCOCC4)cc13)CCC2 — remaining binding (Tyrosine-protein kinase ABL1, non-phosphorylated (ABL1, Homo sapiens, UniProt P00519, F317L); binding, competition with immobilised ligand; 1 µM): 74%
C=CC(=O)N1CCCC(n2c(=O)c3ncccc3n(Cc3ccc(Oc4ccccc4)cc3)c2=O)C1 (stereo not drawn) — melting temperature shift (USP14; thermal proteome profiling; 10 µM, destabilized proteins, unit not given; reference: vehicle): -4.17
Cn1c(=O)n(C2CCC(=O)NC2=O)c2ccc(C3CCN(CC(=O)Nc4cccc(CS(=O)(=O)N5CC[C@H](Nc6cccc(-c7sc(C(=O)O)c(OCC(=O)O)c7Cl)c6)CC5(C)C)c4)CC3)cc21 (stereo partly drawn) — remaining protein (Tyrosine-protein phosphatase non-receptor type 2 (Ptpn2, Mus musculus, UniProt Q06180); degrader, Western blot; B16-F10 cells; 10 µM, added: bortezomib 10 µM pre-treatment; reference: untreated): 1.19% and 7%
C[C@H](NC(=O)CN)C(=O)NCC(=O)N[C@@H](C)C(=O)N[C@@H](C)C(=O)NCC(=O)NCC(=O)N[C@@H](C)C(=O)NCC(=O)NCC(=O)NCC(=O)NCC(=O)NCC(=O)NCC(=O)NCC(=O)N[C@@H](CCCCNC(=O)CCCC[C@@H]1SC[C@@H]2NC(=O)N[C@@H]21)C(N)=O — binding rate (Cd274 (Mus musculus, UniProt Q9EP73); flow cytometry; mPD-L1-expressing cells; concentration not given): 0.44% and 0.4% and 0.59%
CCOC(=O)C1CCCN(CCOC(CNCCC(=O)O)(c2ccc(OC)cc2)c2ccc(OC)cc2)C1 (stereo not drawn) — remaining signal (SLC6A9 (Homo sapiens, UniProt P48067); cell-free assay; 1 µM): 86.1%
COC(=O)Cc1cc2c(cc1C(=O)c1ccccc1Br)OCO2 — desensitization time constant (Gria2/Glutamate receptor 3; glutamate-evoked current, whole-cell patch clamp; HEK-293T; concentration not given, weighted tau, 500 ms pulse, added: glutamate): 2.3 ± 0.2 ms
Cc1nn(-c2ccccc2)c2c1CC1(C(=O)NC(=O)c3ccccc31)C1CCCN21 (stereo not drawn) — inhibition (USP14; enzyme activity, inhibitor; 17 µM): 6%
C#CCOC(=O)[C@@]1(C)C=C(C(=O)Nc2cccc(C(=O)Nc3ccc(C)c(Nc4nccc(-c5cccnc5)n4)c3)c2)C(=O)CC1 — remaining activity (MAPK9 (Homo sapiens, UniProt P45984); enzyme activity, inhibitor; 0.006774 µM, unit not given; reference: vehicle): 0.969
Nc1nnc2c(n1)-c1ccccc1C2=O — inhibition (USP14; enzyme activity, inhibitor; 17 µM): 60%
O=C(O)Cc1cc2c(cc1C(=O)c1ccccc1I)OCO2 — current amplitude ratio (Gria2/Glutamate receptor 3; glutamate-evoked current, whole-cell patch clamp; HEK-293T; concentration not given; reference: glutamate alone): 2.5 ± 0.2
Oc1cc(O)c2cc(O[C@@H]3OC[C@H](O)[C@H](O)[C@H]3O)c(-c3ccc(O)c(O)c3)[o+]c2c1 — binding enthalpy (PPO3; fluorescence quenching; concentration not given): -18.7 ± 0.0574 kcal/mol
O=C1c2sc(-c3ccc(N4CCC(F)C4)nc3F)nc2CCN1c1cccnc1 (stereo not drawn) — specific binding (TAR DNA-binding protein 43, aggregated (TARDBP, Homo sapiens, UniProt Q13148); saturation autoradiography; human, FTLD-TDP type A brain sections; 1.16 nM): 23.9 nM
O=C1Cc2ccccc2C(=O)N1 — inhibition (USP14; enzyme activity, inhibitor; 17 µM): 100%
N[C@H]1CC[C@H](Nc2nccc(-c3cccnc3Oc3ccc(NC(=O)NC4CC4)c4ccccc34)n2)CC1 — log2 LFQ intensity (MASTL (Homo sapiens, UniProt Q96GX5); kinobead competition pulldown; HEK293/HCT116 lysate mixture; 10 µM, 1 h, 4 °C; lower = stronger competition): 20.2 and 18 and 18.4 and 19.7
